Assay results from different studies.
± marks the error that the study gave. Converted amounts (≈) assume the structure as drawn.

`N=C(N)NCCC[C@H](NC(=O)[C@@H]1CCCN1C(=O)[C@H](Cc1ccccc1)NC(=O)[C@@H]1CCCN1C(=O)[C@H](Cc1c[nH]cn1)NC(=O)[C@@H](N)Cc1ccccc1)C(=O)O` gave an MRT(0-inf) of 0.344 ± 0.0315 h (Sprague-Dawley rat male, plasma; intravenous, 10 mg/kg).
With `C=C(c1ncc(C(=O)O)cn1)c1cc2c(cc1C)C(C)(C)CCC2(C)C` the LDL level was 13 ± 1.5 mg/dL (Sprague-Dawley rat, male, plasma; oral, 100 mg/kg, 6 h, sesame oil vehicle).
`C[N+](C)(C)CCO.O=C(O)[C@@H](O)Cc1ccccc1.O=C([O-])[C@@H](O)Cc1ccccc1` gave a pH of 3.87 ± 2.5 (water; concentration not given).
`CC(C)C[C@@H](NC(=O)[C@H](NC(=O)[C@H]1CCCN1)[C@H](C)O)C(=O)N[C@H](Cc1c[nH]cn1)C(=O)N[C@@H](C(=O)N[C@H](Cc1c[nH]cn1)C(=O)N[C@H](CC(N)=O)C(=O)N[C@H](CCCNC(=N)N)C(=O)N[C@H](CCCNC(=N)N)C(=O)N[C@H](CCCNC(=N)N)C(=O)N[C@H](CCCNC(=N)N)C(=O)N[C@H](CCCNC(=N)N)C(N)=O)[C@H](C)O` has a Cmax of 567 ng/mL (beagle dog, plasma; oral, 20 mg/kg, single dose).
The blood concentration of `COc1ccc2ccc3c(c2c1)C=[N+]1C2CCCCC2[N+]2=Cc4ccc(OCCN5CCCCC5)cc4[O][Au-]21[O]3.F[P-](F)(F)(F)(F)F` (centres unmarked) is reported as greater than 1000 ng/mL (ICP-MS, item: gold; mouse; intraperitoneal, 5 mg/kg, 24 h).
`CCCC[C@H](NC(=O)CNC(=O)CNC(=O)CN1CCN(CC(=O)O)CCN(CC(=O)O)CCN(CC(=O)O)CC1)C(=O)N[C@H]1CC(=O)NCCCC[C@@H](C(N)=O)NC(=O)[C@H](Cc2c[nH]c3ccccc23)NC(=O)[C@H](CCCNC(=N)N)NC(=O)[C@@H](Cc2ccccc2)NC(=O)[C@H](Cc2c[nH]cn2)NC1=O` [copper-64 labelled] has an uptake ratio of 1.98 (female C57 mouse, B16/F1 melanoma; intravenous, 0.037 MBq, 0.5 h; reference: tumour over stomach).
`C[C@H]1C[C@@H](Oc2cccc(F)n2)CCN1Cc1cnc(N[11C](C)=O)s1` gave a radioligand stability of 99.2% (human brain homogenate; at least 30 min, room temperature).
`COc1cc(OC)cc(C2=C3C(C)=C(I)C(C)=[N+]3[B-](F)(F)n3c(/C=C/c4c[nH]c5ccc([N+](=O)[O-])cc45)c(I)c(C)c32)c1` has an absorption maximum of 622 nm (DMSO).
For `CCCCCCCC(=O)C(=O)C(O)CO` (centres unmarked), “surface tension decrease” read roughly 17 mN/m (aqueous buffer; 1 to 5 mM, pH 7.4).
For `COCC1CN(C2CCN(c3cc(OC)c(Nc4ncc(Br)c(Nc5ccc6c(c5P(C)(C)=O)OCCO6)n4)cc3C)CC2)C1`, “grade ≥3 treatment-related diarrhoea” read 3.7% (human; oral, 10 to 240 mg once daily).
For `COc1cc(NC(C)=O)c2c(c1O)-c1c(OC)c(OC)cc3c1C(C2)N(C)CC3` (centres unmarked), the remaining compound was 90.3 ± 3.2% (rat liver homogenate; 100 µg/mL, 40 d, -20 °C, long-term storage).
With `CCCC(CCC)NC(=O)c1ccc(OC2OC(C(=O)O)C(O)C(O)C2O)c(OC)c1` (centres unmarked) the AUC(0-last) ratio was 2.14 (female Sprague-Dawley rats, plasma; oral, 50 mg/kg of parent drug; reference: 50 over 20 mg/kg dose).
`CCCCN1C(=O)c2cccc3c(NCCCCCCN4CCOCC4)ccc(c23)C1=O` — result for “fluorescence quantum yield”: 0.32 (water; pH 6; reference: fluorescein/0.1 N NaOH).
For `C[Si](C)(C[C@@H](CN)CC(=O)O)C1CC1`, the performance time was 180 s (neuromuscular coordination; Wistar rat male; oral, 100 mg/kg, 1 h).
The t1/2 of `Cc1ccc(OCC(=O)O)cc1` is reported as 2.47 h (Sprague-Dawley rat, female, plasma; oral, 30 mg/kg/day of parent drug, day 1, 90-day repeated dosing).
The terminal half-life of `Cc1cc(O)cc(O)c1C(=O)c1c2c3c(c(O)cc(C)c3oc1=O)C(=O)c1c(O)cc(O)cc1-2` is reported as 0.667 h (KM mouse, male, plasma; intraperitoneal, 30 mg/kg).
`COc1ccc2cc(-c3ccc(-c4ccc(C)cn4)nc3)oc2c1`: “radiative decay rate constant” 0.1 ns⁻¹ (TCSPC; acetonitrile; zinc complex).
For `O=C(NC1CC1)N1CC=C(c2cc3c(Nc4cc5ncsc5cc4F)ncnc3s2)CC1`, the half-life was greater than 2 h (metabolic stability; human, liver microsomes).
`C#CCOc1ccc(/C=C2\SC(=O)N(CC(=O)NCc3ccccc3)C2=O)cc1`: “Kirkwood-Buff integral G1,3” -290 cm³/mol (inverse Kirkwood-Buff integrals; binary solvent mixture; 298.15 K, mole fraction x1 0.20).
The pKa1 of `NCC(=O)N1CCC[C@H]1C(=O)N1C[C@H](O)C[C@H]1C(=O)O` is reported as less than 2 (potentiometric titration; water; 37 °C, 0.15 mol/dm3 NaCl).
`CC(=O)Nc1ccc(C(N)=O)c(F)c1` has an AUC of 2120 µg-eq·h/L (LC-MS/MS; human, plasma; oral, 25 mg, parent drug equivalents, 1).
`Cc1ccc(NCC(=O)Nc2ccc(F)c(Cl)c2)cc1S(=O)(=O)N1CCOCC1` has a kinetic solubility of 160 µM (≈ 70.7 µg/mL) (water).
Under “beta rate constant”, `N=C(N)NCCC[C@@H]1NC(=O)[C@H](Cc2c[nH]c3ccccc23)NC(=O)[C@@H](CC2CCCCC2)NC(=O)[C@@H]2CCCN2C(=O)[C@@H](NC(=O)CCc2ccccc2)CCCNC1=O` is recorded as 0.27 h⁻¹ (two-compartment model; C57BL/6J mice, brain; intravenous, 1 mg/kg).
For `Cn1c(=O)oc2ccc(-c3ccc(CC(C#N)NC(=O)C4CNCCCO4)c(F)c3)cc21` (centres unmarked), “triglycerides increased incidence” read 11.1% (human; oral, 20 mg once daily, TEAE, multiple ascending dose).
For `CCn1cc(/C=C/c2ccc3ccccc3[n+]2CC)c2ccccc21`, the molar absorptivity was 25500 M⁻¹ cm⁻¹ (DMSO).
`[11CH3]c1ccc2nc(C3CCC3)n(-c3ccc4[nH]ncc4c3)c2n1`: “absorbed radiation dose” 1.8 µSv/MBq (human male, skin).
For `CC(NCCc1nsc2ccccc12)c1cccc2c1OCO2` (centres unmarked), “serum calcium change” read “no effect” (mouse; subcutaneous, 3 mg/kg, 4 h).
For `CSCOC1C(=O)C2(C)C(OCSC)CC3OCC3(OC(C)=O)C2C(OC(=O)c2ccccc2)C2(O)CC(OC(=O)C(O)C(C=C(C)C)NC(=O)OC(C)(C)C)C(C)=C1C2(C)C` (centres unmarked), the clearance was 135 mL/min/kg (female Sprague-Dawley rat, plasma; intravenous, 2 mg/kg).
`Cc1[nH]nc2c1N=C(c1ccccc1Cl)c1cnc(NCCOCCO)cc1N2` — result for “excretion in feces”: 3.14% (human, feces; oral, 10 mg, 0 to 192 h; reference: dose).
For `CC(=O)N[C@H](CC(=O)O)C(=O)N[C@H](Cc1c[nH]c2ccccc12)C(=O)N[C@H](Cc1ccccc1)C(=O)N[C@H](CCCCN)C(=O)N[C@H](C)C(=O)N[C@H](Cc1ccccc1)C(=O)N[C@H](Cc1ccc(O)cc1)C(=O)N[C@H](CC(=O)O)C(=O)N[C@H](CCCCN)C(=O)N[C@@H](C(=O)N[C@H](C)C(=O)N[C@H](CCC(=O)O)C(=O)N[C@H](CCCCN)C(=O)N[C@H](Cc1ccccc1)C(=O)N[C@H](CCCCN)C(=O)N[C@H](CCC(=O)O)C(=O)N[C@H](C)C(=O)N[C@H](Cc1ccccc1)C(N)=O)C(C)C`, the Cmax was 6.86 ng/mL (statin-treated high-risk CHD women, plasma; oral, 300 mg daily, day 1, 0 to 2 h, mean, undetectable set to 0).
`NC(=O)c1cnc2[nH]ccc2c1NC1C2CC3CC1CC(OS(=O)(=O)O)(C3)C2` (centres unmarked) gave a Tmax (median) of 1.5 h (Japanese adults, normal hepatic function, plasma; oral, 150 mg single dose).
`Cc1ccccc1/N=N/c1ccc(/N=N/c2c(O)ccc3ccccc23)c(C)c1`: “freeze-thaw stability deviation” 0.2% (rat whole blood; 16.0 µg/L, freeze-thaw cycle 2).

Excerpt of the above:
With `CCCC(CCC)NC(=O)c1ccc(OC2OC(C(=O)O)C(O)C(O)C2O)c(OC)c1` (centres unmarked) the AUC(0-last) ratio was 2.14 (female Sprague-Dawley rats, plasma; oral, 50 mg/kg of parent drug; reference: 50 over 20 mg/kg dose).
`CCCCN1C(=O)c2cccc3c(NCCCCCCN4CCOCC4)ccc(c23)C1=O` — result for “fluorescence quantum yield”: 0.32 (water; pH 6; reference: fluorescein/0.1 N NaOH).
